Measurements of several laboratories.
± marks the error that the study gave.

COc1cc2c(Nc3ccc(NC(=O)c4ccccc4)cc3)ncnc2cc1OCCCN1CCOCC1 — kinetochore BubR1 level (DLD-1; concentration not given, 1 h; relative to: untreated): ~10%
CCCCCCCCCCCCCCCC(=O)N[C@@H](CCC(=O)NCCOCCOCCC(=O)NCCOCCOCCC(=O)NCCCC[C@H](NC(=O)[C@H](CC(=O)O)NC(=O)[C@H](CC(C)C)NC(=O)[C@H](Cc1ccc(O)cc1)NC(=O)[C@H](CCCCN)NC(=O)[C@H](CO)NC(=O)[C@H](Cc1ccc(O)cc1)NC(=O)[C@H](CC(=O)O)NC(=O)[C@H](CO)NC(=O)[C@@H](NC(=O)[C@H](Cc1ccccc1)NC(=O)[C@@H](NC(=O)CNC(=O)[C@H](CCC(N)=O)NC(=O)[C@@H](CO)NC(=O)[C@@H](N)Cc1c[nH]cn1)[C@@H](C)O)[C@@H](C)O)C(=O)N[C@@H](CCCNC(=N)N)C(=O)N[C@@H](CCCNC(=N)N)C(=O)N[C@@H](C)C(=O)N[C@@H](CCC(N)=O)C(=O)N[C@@H](CC(=O)O)C(=O)N[C@@H](Cc1ccccc1)C(=O)N[C@H](C(=O)N[C@@H](CCC(N)=O)C(=O)N[C@@H](Cc1c[nH]c2ccccc12)C(=O)N[C@@H](CC(C)C)C(=O)N[C@@H](CCCC)C(=O)N[C@@H](CC(N)=O)C(=O)N[C@H](C(=O)NCC(=O)NCC(=O)N1CCC[C@H]1C(=O)N[C@@H](CO)C(=O)N[C@@H](CO)C(=O)NCC(=O)N[C@@H](C)C(=O)N1CCC[C@H]1C(=O)N1CCC[C@H]1C(=O)N1CCC[C@H]1C(=O)N[C@@H](CO)C(N)=O)[C@@H](C)O)C(C)C)C(=O)O — α-SMA protein level (LX-2; agonist, Western blot; 200 µM, 48 h): decreased
CC1=C[C@H]2O[C@@H]3[C@H](O)C[C@](C)([C@@]2(CO)[C@H](O)C1=O)[C@]31CO1 — IC50 (HK-2; cell growth or viability, SRB; 24 h): 12300 nM
CC[C@H](C)[C@@H]1NC(=O)[C@@H](NC(=O)[C@H](CO)NC(=O)[C@@H](N)CCCNC(=N)N)CSSC[C@@H](C(=O)N[C@@H](CCCCN)C(N)=O)NC(=O)[C@H]([C@@H](C)O)NC(=O)CNC(=O)[C@@H]2CSSC[C@@H]3NC(=O)[C@H](CCC(N)=O)NC(=O)[C@H](Cc4ccccc4)NC(=O)[C@H](C)NC(=O)[C@H]([C@@H](C)O)NC(=O)[C@H](CSSC[C@H](NC(=O)[C@H](Cc4ccccc4)NC(=O)[C@H](CO)NC(=O)[C@H](CC(C)C)NC(=O)[C@H](CCCNC(=N)N)NC(=O)[C@H](Cc4ccc(O)cc4)NC(=O)[C@H](CCCCN)NC(=O)[C@H](CCSC)NC(=O)[C@H](CO)NC(=O)[C@H](Cc4c[nH]cn4)NC(=O)[C@H](CCCCN)NC3=O)C(=O)N[C@@H](CCCNC(=N)N)C(=O)N[C@@H](CCCCN)C(=O)N[C@@H]([C@@H](C)O)C(=O)N2)NC(=O)[C@H](CCCNC(=N)N)NC(=O)[C@H](CO)NC(=O)[C@H](CCCCN)NC(=O)[C@@H]2CCCN2C(=O)[C@H]([C@@H](C)CC)NC(=O)[C@H]([C@@H](C)O)NC(=O)[C@H](CC(=O)O)NC1=O — IC50 (human T-lymphocyte; lymphocyte proliferation, inhibitor, thymidine uptake): ~3 nM
CCCCCCCCCCCCCCCC(=O)N[C@@H](CCC(=O)NCCCC[C@H](NC(=O)[C@H](CC(=O)O)NC(=O)[C@H](CO)NC(=O)[C@@H](NC(=O)[C@H](Cc1ccccc1)NC(=O)[C@@H](NC(=O)CNC(=O)[C@H](CCC(N)=O)NC(=O)[C@H](C)NC(=O)[C@@H](Cc1ccc(O)cc1)NC(C)=O)[C@@H](C)O)[C@@H](C)O)C(=O)N[C@@H](CO)C(=O)N[C@@H](CCCCN)C(=O)N[C@@H](Cc1ccc(O)cc1)C(=O)N[C@@H](CC(C)C)C(=O)N[C@@H](CC(=O)O)C(=O)N[C@@H](CCC(=O)O)C(=O)N[C@@H](CCCNC(=N)N)C(=O)N[C@@H](C)C(=O)N[C@@H](C)C(=O)N[C@@H](CCC(N)=O)C(=O)N[C@@H](CC(=O)O)C(=O)N[C@@H](Cc1ccccc1)C(=O)N[C@H](C(=O)N[C@@H](CCC(N)=O)C(=O)N[C@@H](Cc1c[nH]c2ccccc12)C(=O)N[C@@H](CC(C)C)C(=O)N[C@@H](CC(C)C)C(=O)N[C@@H](CCC(=O)O)C(=O)NCC(=O)NCC(=O)N1CCC[C@H]1C(=O)N[C@@H](CO)C(=O)N[C@@H](CO)C(=O)NCC(=O)N[C@@H](C)C(=O)N1CCC[C@H]1C(=O)N1CCC[C@H]1C(=O)N1CCC[C@H]1C(=O)N[C@@H](CO)C(N)=O)C(C)C)C(=O)O — bioavailability (male cynomolgus monkey, plasma; subcutaneous, 0.0211 mg/kg): 36.1%
Nc1c(C(=O)NCc2ccc(F)cc2F)c(=O)n(O)c2ncccc12 — EC50 (HIV-1 vector with IN T66I; single-round infectivity): 0.6 ± 0.3 nM
CC[C@H](C)[C@@H]([C@@H](CC(=O)N1CCC[C@H]1[C@H](OC)[C@@H](C)C(=O)N[C@H](C)[C@@H](O)c1ccccc1)OC)N(C)C(=O)[C@@H](NC(=O)[C@H](C(C)C)N(C)C(=O)OCc1ccc(NC(=O)[C@H](CCCNC(N)=O)NC(=O)[C@@H](NC(=O)CCCC(=O)NCCC(=O)N(C)CC(=O)N(C)CC(=O)N(C)CC(=O)N(C)CC(=O)N(C)CC(=O)N(C)CC(=O)N(C)CC(=O)N(C)CC(=O)N(C)CC(=O)N(C)CC(=O)N[C@H]2CSCCC(=O)N3CN4CN(C3)C(=O)CCSC[C@H](NC(=O)[C@@H](CC(=O)O)NC(=O)[C@H](Cc3cccc5ccccc35)NC(=O)[C@@H]3CCCN3C2=O)C(=O)N[C@@H](CCSC)C(=O)N[C@@H](CCCCNC(=N)N)C(=O)N[C@@H](CC(=O)O)C(=O)N[C@@H](Cc2c[nH]c3ccccc23)C(=O)N[C@@H](CO)C(=O)N[C@@H]([C@@H](C)O)C(=O)N2CCC[C@H]2C(=O)N2C[C@H](O)C[C@H]2C(=O)N[C@@H](Cc2c[nH]c3ccccc23)C(=O)N[C@H](C(N)=O)CSCCC4=O)C(C)C)cc1)C(C)C — t_half (mouse plasma; 2 µM, pH 7.4): 264 min
COc1ccc(-c2cnnn2-c2cc(OC)c(OC)c(OC)c2)cc1N — EC50 (U2OS; cytotoxicity, nuclei counting; 24 h): 9.68 ± 1.63 nM
CC[C@H](C)[C@H](N)C(=O)N[C@@H](Cc1c[nH]c2ccccc12)C(=O)N[C@@H](CC(C)C)C(=O)N[C@H](C(=O)N[C@@H](C)C(=O)N[C@@H](CC(C)C)C(=O)N[C@@H](CCCCN)C(=O)N[C@@H](Cc1ccccc1)C(=O)N[C@@H](CC(C)C)C(=O)NCC(=O)N[C@@H](CCCCN)C(=O)N[C@@H](Cc1c[nH]cn1)C(=O)N[C@@H](C)C(=O)N[C@@H](C)C(=O)N[C@@H](CCCCN)C(=O)N[C@@H](Cc1c[nH]cn1)C(=O)N[C@@H](CCC(=O)O)C(=O)N[C@@H](C)C(=O)N[C@@H](CCCCN)C(=O)N[C@@H](CCC(N)=O)C(=O)N[C@@H](CCC(N)=O)C(=O)N[C@@H](CC(C)C)C(=O)N[C@@H](CO)C(=O)N[C@@H](CCCCN)C(=O)N[C@@H](CC(C)C)C(=O)N[C@@H](CS)C(N)=O)[C@@H](C)O — EC50 (human red blood cells; pH 5.5; relative to: Triton X-100): > 100000 nM
CC[C@H](C)[C@H](NC(=O)[C@H](CCCN)NC(=O)[C@H](CC(=O)O)NC(=O)[C@H](CC(C)C)NC(=O)C(C)(CC(C)C)NC(=O)[C@@H](NC(=O)[C@H](CO)NC(=O)[C@H](Cc1ccc(O)cc1)NC(=O)[C@H](CC(=O)O)NC(=O)[C@H](CO)NC(=O)[C@@H](NC(=O)[C@H](Cc1ccccc1)NC(=O)[C@@H](NC(=O)CNC(=O)[C@H](CCC(=O)O)NC(=O)C(C)(C)NC(=O)[C@@H](N)Cc1ccc(O)cc1)[C@@H](C)O)[C@@H](C)CC)[C@@H](C)CC)C(=O)N[C@@H](Cc1c[nH]cn1)C(=O)N[C@@H](CCC(N)=O)C(=O)NC(C)(C)C(=O)N[C@@H](CC(=O)O)C(=O)N[C@@H](Cc1ccccc1)C(=O)N[C@H](C(=O)N[C@@H](CCC(=O)O)C(=O)N[C@@H](Cc1ccc(O)cc1)C(=O)N[C@@H](CCCCNC(=O)COCCOCCNC(=O)COCCOCCNC(=O)CC[C@H](NC(=O)CCCCCCCCCCCCCCCCCCC(=O)O)C(=O)O)C(=O)N[C@@H](CC(C)C)C(=O)N[C@@H](CCC(=O)O)C(=O)NCC(=O)NCC(=O)N1CCC[C@H]1C(=O)N[C@@H](CO)C(=O)N[C@@H](CO)C(=O)NCC(=O)N[C@@H](C)C(=O)N1CCC[C@H]1C(=O)N1CCC[C@H]1C(=O)N1CCC[C@H]1C(=O)N[C@@H](CO)C(N)=O)C(C)C (stereo partly shown) — terminal half-life (human, type 2 diabetes; subcutaneous, 25 mg single dose, geometric mean): 12.2 days
CC[C@H](C)[C@H](NC(=O)[C@H](CCCCN)NC(=O)[C@H](CCCCN)NC(=O)[C@H](CC(C)C)NC(=O)[C@H](Cc1c[nH]c2ccccc12)NC(=O)CN)C(=O)NCC(=O)N[C@@H](CCCCN)C(=O)N[C@@H](CCCCN)C(=O)N[C@H](C(=O)N[C@@H](CCC(=O)O)C(=O)N[C@@H](CCCNC(=N)N)C(=O)N[C@H](C(=O)NCC(=O)N[C@@H](CCC(N)=O)C(=O)N[C@@H](Cc1c[nH]cn1)C(=O)N[C@H](C(=O)N[C@@H](CCCNC(=N)N)C(=O)N[C@@H](CC(=O)O)C(=O)N[C@@H](C)C(=O)N[C@H](C(=O)N[C@H](C(=O)N[C@@H](CCC(N)=O)C(=O)N[C@H](C(=O)N[C@H](C(=O)NCC(=O)N[C@H](C(=O)N[C@@H](C)C(=O)N[C@@H](CCC(N)=O)C(=O)N[C@@H](CCC(N)=O)C(=O)N[C@@H](C)C(=O)N[C@@H](C)C(=O)N[C@@H](CC(N)=O)C(=O)N[C@H](C(=O)N[C@@H](C)C(=O)N[C@@H](C)C(=O)N[C@H](C(=O)N[C@@H](CC(C)C)C(=O)N[C@@H](CCCCN)C(N)=O)[C@@H](C)O)C(C)C)C(C)C)[C@@H](C)CC)[C@@H](C)O)[C@@H](C)CC)[C@@H](C)O)[C@@H](C)O)C(C)C)[C@@H](C)CC — no-observed-effect concentration (HepG2; cytotoxicity, measured: intracellular ATP): 420 mg/L
CCCCCCCCCCCCCCCC(=O)N[C@@H](CCC(=O)NCCOCCOCCC(=O)NCCOCCOCCC(=O)NCCCC[C@H](NC(=O)[C@H](CC(=O)O)NC(=O)[C@H](CC(C)C)NC(=O)[C@H](Cc1ccc(O)cc1)NC(=O)[C@H](CCCCN)NC(=O)[C@H](CO)NC(=O)[C@H](Cc1ccc(O)cc1)NC(=O)[C@H](CC(=O)O)NC(=O)[C@H](CO)NC(=O)[C@@H](NC(=O)[C@H](Cc1ccccc1)NC(=O)[C@@H](NC(=O)CNC(=O)[C@H](CCC(N)=O)NC(=O)[C@@H](CO)NC(=O)[C@@H](N)Cc1c[nH]cn1)[C@@H](C)O)[C@@H](C)O)C(=O)N[C@@H](CCCNC(=N)N)C(=O)N[C@@H](CCCNC(=N)N)C(=O)N[C@@H](C)C(=O)N[C@@H](CCC(N)=O)C(=O)N[C@@H](CC(=O)O)C(=O)N[C@@H](Cc1ccccc1)C(=O)N[C@H](C(=O)N[C@@H](CCC(N)=O)C(=O)N[C@@H](Cc1c[nH]c2ccccc12)C(=O)N[C@@H](CC(C)C)C(=O)N[C@@H](CC(C)C)C(=O)N[C@@H](CC(N)=O)C(=O)N[C@H](C(=O)NCC(=O)NCC(=O)N1CCC[C@H]1C(=O)N[C@@H](CO)C(=O)N[C@@H](CO)C(=O)NCC(=O)N[C@@H](C)C(=O)N1CCC[C@H]1C(=O)N1CCC[C@H]1C(=O)N1CCC[C@H]1C(=O)N[C@@H](CO)C(N)=O)[C@@H](C)O)C(C)C)C(=O)O — α-SMA protein level (LX-2; agonist, Western blot; 200 µM, 48 h): decreased
C=C(C)C[C@H](OC)[C@H](O)C(=O)N[C@@H](OC)[C@@H]1CC(=O)C(C)(C)[C@@H](C[C@H](O)[C@@H](C)[C@H]2Cc3c(C)c(O)cc(O)c3C(=O)O2)O1 — IC50 (A2058; cell growth or viability): 0.5 nM
